Assay results collected from several papers.
Every numbered part comes from another study and shows a few of its results, in no order.
Chain of UniProt P07949 (whole entry, unmodified, looked up): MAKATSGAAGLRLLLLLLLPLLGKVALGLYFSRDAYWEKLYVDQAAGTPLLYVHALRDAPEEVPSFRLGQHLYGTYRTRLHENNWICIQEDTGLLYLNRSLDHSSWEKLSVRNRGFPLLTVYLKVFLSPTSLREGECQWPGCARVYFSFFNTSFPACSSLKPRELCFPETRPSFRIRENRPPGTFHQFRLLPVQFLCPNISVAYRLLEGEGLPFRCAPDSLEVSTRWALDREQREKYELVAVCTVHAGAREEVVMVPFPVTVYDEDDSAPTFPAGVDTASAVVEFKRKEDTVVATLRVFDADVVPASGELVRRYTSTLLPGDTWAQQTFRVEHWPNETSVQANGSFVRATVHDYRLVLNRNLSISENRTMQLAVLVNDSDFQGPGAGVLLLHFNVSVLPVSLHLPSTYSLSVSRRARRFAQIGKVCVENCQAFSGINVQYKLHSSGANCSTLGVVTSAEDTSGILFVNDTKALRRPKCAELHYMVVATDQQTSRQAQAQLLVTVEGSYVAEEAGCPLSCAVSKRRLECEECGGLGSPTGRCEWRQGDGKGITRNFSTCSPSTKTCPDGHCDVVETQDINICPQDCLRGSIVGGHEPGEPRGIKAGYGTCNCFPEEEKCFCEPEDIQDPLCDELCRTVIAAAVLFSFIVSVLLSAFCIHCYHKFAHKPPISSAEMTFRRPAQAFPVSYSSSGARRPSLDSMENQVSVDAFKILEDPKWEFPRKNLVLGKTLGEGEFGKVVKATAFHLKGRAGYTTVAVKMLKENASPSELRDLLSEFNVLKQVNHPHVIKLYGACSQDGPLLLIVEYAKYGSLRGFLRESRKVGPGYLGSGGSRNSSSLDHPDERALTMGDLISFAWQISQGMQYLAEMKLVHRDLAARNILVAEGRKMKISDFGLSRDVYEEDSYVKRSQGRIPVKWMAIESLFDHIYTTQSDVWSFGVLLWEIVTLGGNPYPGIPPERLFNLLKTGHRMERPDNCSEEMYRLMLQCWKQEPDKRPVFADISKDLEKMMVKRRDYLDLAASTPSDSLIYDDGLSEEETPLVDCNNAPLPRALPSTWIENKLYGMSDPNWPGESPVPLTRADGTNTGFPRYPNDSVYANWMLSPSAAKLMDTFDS
Chain of UniProt P10721 (whole entry, looked up): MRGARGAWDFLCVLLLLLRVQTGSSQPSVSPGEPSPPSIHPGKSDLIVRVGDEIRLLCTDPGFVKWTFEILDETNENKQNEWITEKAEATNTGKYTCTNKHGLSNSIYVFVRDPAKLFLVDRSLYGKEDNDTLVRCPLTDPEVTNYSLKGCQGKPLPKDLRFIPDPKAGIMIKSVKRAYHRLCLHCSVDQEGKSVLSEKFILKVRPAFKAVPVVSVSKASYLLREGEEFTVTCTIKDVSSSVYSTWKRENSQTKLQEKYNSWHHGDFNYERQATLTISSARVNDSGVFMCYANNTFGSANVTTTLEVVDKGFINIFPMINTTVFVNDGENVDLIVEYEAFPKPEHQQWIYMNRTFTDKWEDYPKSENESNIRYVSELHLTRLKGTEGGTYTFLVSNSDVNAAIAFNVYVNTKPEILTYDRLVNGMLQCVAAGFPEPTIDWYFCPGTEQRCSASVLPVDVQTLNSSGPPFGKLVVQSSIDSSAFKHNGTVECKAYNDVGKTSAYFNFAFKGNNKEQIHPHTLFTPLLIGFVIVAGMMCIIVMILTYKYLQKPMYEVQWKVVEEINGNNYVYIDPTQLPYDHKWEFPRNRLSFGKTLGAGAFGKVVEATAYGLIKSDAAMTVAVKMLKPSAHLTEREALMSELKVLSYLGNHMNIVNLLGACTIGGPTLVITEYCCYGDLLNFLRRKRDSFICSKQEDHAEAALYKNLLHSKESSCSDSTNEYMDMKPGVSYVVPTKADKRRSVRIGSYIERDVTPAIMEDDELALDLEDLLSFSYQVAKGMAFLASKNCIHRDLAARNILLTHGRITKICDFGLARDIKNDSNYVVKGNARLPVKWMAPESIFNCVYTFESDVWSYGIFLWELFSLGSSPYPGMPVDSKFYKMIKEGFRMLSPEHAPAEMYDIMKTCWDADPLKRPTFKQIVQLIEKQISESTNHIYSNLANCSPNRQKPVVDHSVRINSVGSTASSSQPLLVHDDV
Chain of UniProt Q9HAZ1 (whole entry, looked up): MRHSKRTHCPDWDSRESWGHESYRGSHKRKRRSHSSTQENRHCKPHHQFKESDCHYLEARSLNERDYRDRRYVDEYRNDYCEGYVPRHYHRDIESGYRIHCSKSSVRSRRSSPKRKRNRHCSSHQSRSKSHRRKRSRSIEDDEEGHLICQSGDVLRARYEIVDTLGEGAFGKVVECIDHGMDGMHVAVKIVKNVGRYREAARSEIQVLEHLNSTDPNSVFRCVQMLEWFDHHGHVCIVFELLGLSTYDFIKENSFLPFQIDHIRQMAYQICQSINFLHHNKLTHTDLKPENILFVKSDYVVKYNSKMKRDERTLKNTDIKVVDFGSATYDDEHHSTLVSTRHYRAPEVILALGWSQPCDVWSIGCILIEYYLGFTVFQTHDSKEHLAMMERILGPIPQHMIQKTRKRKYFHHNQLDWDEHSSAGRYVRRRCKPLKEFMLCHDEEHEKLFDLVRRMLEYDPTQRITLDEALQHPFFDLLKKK
Chain of UniProt Q14004 (whole entry, looked up): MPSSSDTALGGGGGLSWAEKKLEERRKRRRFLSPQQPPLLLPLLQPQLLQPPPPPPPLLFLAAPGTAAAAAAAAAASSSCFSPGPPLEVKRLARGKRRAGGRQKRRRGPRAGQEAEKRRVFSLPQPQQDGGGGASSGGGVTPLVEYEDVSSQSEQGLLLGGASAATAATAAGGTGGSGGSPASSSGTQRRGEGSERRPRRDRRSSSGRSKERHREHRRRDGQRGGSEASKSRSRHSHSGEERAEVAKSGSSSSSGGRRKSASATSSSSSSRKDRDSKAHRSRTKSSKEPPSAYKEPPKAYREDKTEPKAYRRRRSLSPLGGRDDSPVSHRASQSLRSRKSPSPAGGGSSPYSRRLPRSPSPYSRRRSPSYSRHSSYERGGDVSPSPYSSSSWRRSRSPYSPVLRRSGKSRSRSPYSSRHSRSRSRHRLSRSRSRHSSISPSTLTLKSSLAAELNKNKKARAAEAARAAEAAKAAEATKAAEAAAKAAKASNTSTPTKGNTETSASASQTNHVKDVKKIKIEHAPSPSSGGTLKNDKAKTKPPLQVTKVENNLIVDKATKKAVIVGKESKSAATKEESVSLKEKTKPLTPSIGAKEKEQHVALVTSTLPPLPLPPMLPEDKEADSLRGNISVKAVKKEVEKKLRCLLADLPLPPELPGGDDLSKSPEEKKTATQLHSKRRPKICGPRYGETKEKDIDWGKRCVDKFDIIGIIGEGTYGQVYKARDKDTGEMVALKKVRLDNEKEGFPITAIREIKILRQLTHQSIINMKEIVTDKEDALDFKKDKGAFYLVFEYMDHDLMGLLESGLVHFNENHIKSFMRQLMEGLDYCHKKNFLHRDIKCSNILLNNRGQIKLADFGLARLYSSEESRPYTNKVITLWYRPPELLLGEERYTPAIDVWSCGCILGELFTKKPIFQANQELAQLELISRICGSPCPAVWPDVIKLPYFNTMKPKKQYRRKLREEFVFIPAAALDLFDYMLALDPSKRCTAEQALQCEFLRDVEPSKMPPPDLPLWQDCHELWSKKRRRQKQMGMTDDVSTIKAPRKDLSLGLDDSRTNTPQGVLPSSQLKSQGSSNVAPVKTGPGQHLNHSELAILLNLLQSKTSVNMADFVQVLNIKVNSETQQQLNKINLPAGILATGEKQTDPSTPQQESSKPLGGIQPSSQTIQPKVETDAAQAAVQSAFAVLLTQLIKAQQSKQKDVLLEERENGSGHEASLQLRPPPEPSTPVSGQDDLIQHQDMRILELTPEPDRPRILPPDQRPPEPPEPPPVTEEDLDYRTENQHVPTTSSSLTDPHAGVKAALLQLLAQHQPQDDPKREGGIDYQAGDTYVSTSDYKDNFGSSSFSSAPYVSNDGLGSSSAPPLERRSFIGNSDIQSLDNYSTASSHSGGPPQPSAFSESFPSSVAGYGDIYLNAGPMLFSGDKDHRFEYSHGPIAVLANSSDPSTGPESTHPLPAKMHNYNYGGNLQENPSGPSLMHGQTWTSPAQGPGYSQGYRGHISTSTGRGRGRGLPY
Chain of UniProt Q02750 (whole entry, looked up): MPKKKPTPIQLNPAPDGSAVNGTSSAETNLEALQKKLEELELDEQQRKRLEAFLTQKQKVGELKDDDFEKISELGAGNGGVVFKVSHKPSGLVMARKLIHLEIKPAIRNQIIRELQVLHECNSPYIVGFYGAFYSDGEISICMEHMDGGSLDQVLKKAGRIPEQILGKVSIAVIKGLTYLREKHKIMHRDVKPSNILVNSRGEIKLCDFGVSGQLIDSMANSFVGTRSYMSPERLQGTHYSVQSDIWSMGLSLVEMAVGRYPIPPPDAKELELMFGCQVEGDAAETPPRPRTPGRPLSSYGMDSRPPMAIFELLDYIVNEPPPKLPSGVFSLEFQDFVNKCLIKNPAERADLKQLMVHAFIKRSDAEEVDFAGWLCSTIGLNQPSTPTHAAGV
Chain of UniProt Q15759 (whole entry, looked up): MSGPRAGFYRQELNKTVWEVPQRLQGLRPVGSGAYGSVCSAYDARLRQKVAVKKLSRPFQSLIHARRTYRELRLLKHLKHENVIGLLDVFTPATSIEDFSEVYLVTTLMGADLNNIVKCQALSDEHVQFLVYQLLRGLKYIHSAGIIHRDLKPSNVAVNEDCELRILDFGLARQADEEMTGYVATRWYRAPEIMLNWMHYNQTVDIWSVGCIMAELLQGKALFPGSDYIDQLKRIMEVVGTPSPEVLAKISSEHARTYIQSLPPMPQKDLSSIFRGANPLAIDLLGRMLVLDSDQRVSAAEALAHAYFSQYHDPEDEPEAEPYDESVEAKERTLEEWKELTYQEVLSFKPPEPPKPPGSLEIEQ

Series 1 — action: inhibitor; tested at: 1 µM
Compound: C=CC(=O)N1CCC[C@@H](n2nc(-c3ccc(Oc4ccccc4)cc3)c3c(N)ncnc32)C1
| target | effect on | inhibition [%] |
| --- | --- | --- |
| SGK1 (Homo sapiens, UniProt O00141) | enzyme activity | 9 |
| FER (Homo sapiens, UniProt P16591) | enzyme activity | 0 |
| Cyclin-dependent kinase 4, with cyclin D1 (CDK4, Homo sapiens, UniProt P11802) |  | 0 |
| Ribosomal protein S6 kinase alpha-3, N-terminal kinase domain (RPS6KA3, Homo sapiens, UniProt P51812) |  | 36 |
| MAPKAPK5 (Homo sapiens, UniProt Q8IW41) | enzyme activity | 16 |
| MAST1 (Homo sapiens, UniProt Q9Y2H9) | enzyme activity | 5 |
| RET (Homo sapiens, UniProt P07949, V804M) | enzyme activity | 8 |

Series 2 — effect on: cell-free assay; technique: competition with immobilised ligand; tested at: 0.1 µM
SMILES: Nc1c(C(=O)NCc2ccc(C(=O)NCCCC3CCCCC3)cc2)cnn1-c1ccccc1
| target | remaining binding [%] |
| --- | --- |
| CAMK1D (Homo sapiens, UniProt Q8IU85) | 93 |
| NTRK3 (Homo sapiens, UniProt Q16288) | 97 |
| NEK2 (Homo sapiens, UniProt P51955) | 100 |
| HUNK (Homo sapiens, UniProt P57058) | 100 |
| CDK13 (Homo sapiens, UniProt Q14004) | 79 |
| LATS1 (Homo sapiens, UniProt O95835) | 100 |
| RET (Homo sapiens, UniProt P07949, V804L) | 100 |
| CDC42BPA (Homo sapiens, UniProt Q5VT25) | 100 |

Series 3 — technique: competitive binding panel; tested at: 1 µM; reference: vehicle
Compound: COc1ccc2[nH]c3c4[nH]c5ccc(OC)cc5c4c4c(c3c2c1)C(=O)NC4=O
| target | remaining binding |
| --- | --- |
| MAP4K2 (Homo sapiens, UniProt Q12851) | 75% |
| LRRK2 (Homo sapiens, UniProt Q5S007, G2019S) | 2.6% |
| ULK2 (Homo sapiens, UniProt Q8IYT8) | 87% |
| KIT (Homo sapiens, UniProt P10721) | 24% |
| FGFR3 (Homo sapiens, UniProt P22607) | 93% |

Series 4 — SMILES: COc1cc2ncc(-c3ccccc3)nc2cc1OC; effect on: enzyme activity; action: inhibitor; tested at: 0.5 µM; reference: control
| target | remaining activity [%] |
| --- | --- |
| MAPK11 (Homo sapiens, UniProt Q15759) | 95.7 |
| MAP2K1 (Homo sapiens, UniProt Q02750) | 97.6 |
| GRK4 (Homo sapiens, UniProt P32298) | 97.8 |
| PNCK (Homo sapiens, UniProt Q6P2M8) | 98.2 |
| MARK4 (Homo sapiens, UniProt Q96L34) | 85.3 |
| MARK2 (Homo sapiens, UniProt Q7KZI7) | 112 |
| PRKG2 (Homo sapiens, UniProt Q13237) | 83.6 |
| CLK4 (Homo sapiens, UniProt Q9HAZ1) | 102 |
| TXK (Homo sapiens, UniProt P42681) | 93.4 |
| NEK3 (Homo sapiens, UniProt P51956) | 90.5 |
| TLK2 (Homo sapiens, UniProt Q86UE8) | 96.3 |
| KDR (Homo sapiens, UniProt P35968) | 85.4 |
| CAMK4 (Homo sapiens, UniProt Q16566) | 95.2 |
| Cyclin-dependent kinase 1, with cyclin A (CDK1, Homo sapiens, UniProt P06493) | 94.8 |
| PAK3 (Homo sapiens, UniProt O75914) | 94.7 |

For quick reference, copied from above (series 4):
| target | remaining activity [%] |
| --- | --- |
| MAPK11 (Homo sapiens, UniProt Q15759) | 95.7 |
| MAP2K1 (Homo sapiens, UniProt Q02750) | 97.6 |
| GRK4 (Homo sapiens, UniProt P32298) | 97.8 |
| PNCK (Homo sapiens, UniProt Q6P2M8) | 98.2 |
| MARK4 (Homo sapiens, UniProt Q96L34) | 85.3 |
| MARK2 (Homo sapiens, UniProt Q7KZI7) | 112 |
